Results of several laboratories.
Protocols differ between the studies behind these lines. Several values in a cell are separate wells, animals, samples, runs or records.
Cell line: UACC-257

`CSc1nc(-c2ccc(Cl)cc2)c2c(NC(=O)c3ccccc3)nnc-2[nH]1` gave a cell growth of 98.8% (SRB; 10 µM, NCI60 single-dose screen; baseline: untreated).
With `CCCCN1CCN(c2ccc3[nH]c(-c4ccc5[nH]c(-c6ccc(C(F)(F)F)cc6)nc5c4)nc3c2)CC1` the growth percent was -16.1% (SRB; 10 µM, 48 h).
With `Cc1cc(=O)[nH]c(=O)n1Cc1cn(-c2c3ccccc3nc3ccccc23)nn1` the growth percentage was 67% (NCI60 single-dose screen; 10 µM).
The GI50 of `O=C(/C=C/C=C/C=C/C1CCCCC1)NC1=C[C@@](O)(/C=C/C=C/C=C/C(=O)NC2=C(O)CCC2=O)[C@@H]2O[C@@H]2C1=O` is reported as 17.6 µM (cell growth, CellTiter-Glo; 78 h).
`CCCCN1CCN(c2ccc3nc(-c4ccc5nc(-c6cc(OC)ccc6OC)[nH]c5c4)[nH]c3c2)CC1` gave a growth percent of 104% (SRB; 10 µM, 48 h).
The cell growth of `NNc1nc(-c2ccc(Cl)cc2)c2c(NC(=O)c3ccccc3)nnc-2[nH]1` is reported as 103% (SRB; 10 µM, NCI60 single-dose screen; baseline: untreated).
`CCOc1ccc(-c2nc3cc(-c4nc5cc(N6CCN(C)CC6)ccc5[nH]4)ccc3[nH]2)cc1OCC` gave a growth percent of 6.87% (SRB; 10 µM, 48 h).
With `O=C(Nc1nnc2n3c(=S)[nH][nH]c3nc(-c3ccc(Cl)cc3)c1-2)c1ccccc1` the cell growth was 105% (SRB; 10 µM, NCI60 single-dose screen; baseline: untreated).
With `O=C1NC(c2ccccc2)(c2ccccc2)C(=O)N1Cc1cn(-c2cc3ccccc3oc2=O)nn1` the growth percentage was 101% (NCI60 single-dose screen; 10 µM).
The log10 TGI of `S=C([S][Au-][P+](CCCCCC[P+]([Au-][S]C(=S)n1cccn1)(c1ccccc1)c1ccccc1)(c1ccccc1)c1ccccc1)n1cccn1` is reported as greater than -4 (cell growth, NCI-60 screen; melanoma).
The growth percent of `CCCCN1CCN(c2ccc3[nH]c(-c4ccc5[nH]c(-c6cc(OC)c(OC)c(OC)c6)nc5c4)nc3c2)CC1` is reported as 87.9% (SRB; 10 µM, 48 h).
With `O=C(Nc1nnc2n3c(Cc4ccccc4)n[nH]c3nc(-c3ccc(Cl)cc3)c1-2)c1ccccc1` the cell growth was 102% (SRB; 10 µM, NCI60 single-dose screen; baseline: untreated).
With `Cc1cc(=O)[nH]c(=O)n1Cc1cn(-c2cc3ccccc3oc2=O)nn1` the growth percentage was 101% (NCI60 single-dose screen; 10 µM).
For `CCCN1CCN(c2ccc3nc(-c4ccc5nc(-c6cc(OC)ccc6OC)[nH]c5c4)[nH]c3c2)CC1`, the growth percent was 110% (SRB; 10 µM, 48 h).
`O=C1NC(c2ccccc2)(c2ccccc2)C(=O)N1Cc1cn(-c2c3ccccc3nc3ccccc23)nn1` has a growth percentage of 89.1% (NCI60 single-dose screen; 10 µM).
`CCCCN1CCN(c2ccc3[nH]c(-c4ccc5[nH]c(-c6ccc(OCC)c(OCC)c6)nc5c4)nc3c2)CC1` has a growth percent of 29% (SRB; 10 µM, 48 h).
`C#C[C@@]1(O)[C@@H](CO)O[C@@H](n2cc(Br)c3c(N)ncnc32)[C@@H]1O` gave a TGI of 49.2 µM and 77 µM (SRB; NCI-60 screen).
`O=C(Nc1nnc2[nH]c(=S)[nH]c(-c3ccc(Cl)cc3)c1-2)c1ccccc1` has a cell growth of 106% (SRB; 10 µM, NCI60 single-dose screen; baseline: untreated).
For `Cn1cncc1C1=CN(c2ncnc3[nH]cnc23)CCS1`, the GI50 was 37.2 µM (melanoma cell line).
`C#C[C@@]1(O)[C@@H](CO)O[C@@H](n2cc(F)c3c(N)ncnc32)[C@@H]1O` gave a TGI of 4.64 µM (SRB; NCI-60 screen).

Repeated from above:
The cell growth of `NNc1nc(-c2ccc(Cl)cc2)c2c(NC(=O)c3ccccc3)nnc-2[nH]1` is reported as 103% (SRB; 10 µM, NCI60 single-dose screen; baseline: untreated).
